# Experimental data from different studies.
# Several values in a cell are separate wells, animals, samples, runs or records. Numbers after ± are the reported error.
Structure (SMILES),assay,test system,conditions,endpoint,result
CC(C)[C@@H]1NC(=O)[C@H](Cc2ccccc2)NC(=O)[C@H](Cc2ccc(O)cc2)NC(=O)CCSSC[C@@H](C(=O)N2CCC[C@H]2C(=O)N[C@H](CCCNC(=N)N)C(=O)NCC(N)=O)NC(=O)[C@H](CCC(N)=O)NC1=O,,"Wistar rat, blood","intravenous, 100 µg/kg single dose, 72 h",AST,46.6 ± 20.1 IU/L
CC[C@H](C)[C@H](NC(=O)CN)C(=O)N[C@@H](CC(C)C)C(=O)N[C@@H](CCCCN)C(=O)N[C@@H](Cc1ccccc1)C(=O)N[C@@H](CC(C)C)C(=O)N[C@@H](CCC(=O)O)C(=O)N[C@@H](CO)C(=O)N[C@@H](C)C(=O)N[C@@H](CCCCN)C(=O)N[C@@H](CCCCN)C(=O)N[C@@H](Cc1c[nH]c2ccccc12)C(=O)N[C@@H](CC(C)C)C(=O)N[C@@H](CCC(=O)O)C(=O)N[C@@H](C)C(=O)N[C@@H](Cc1ccccc1)C(=O)N[C@@H](CC(C)C)C(=O)N[C@@H](C)C(=O)N[C@@H](CCC(=O)O)C(=O)N[C@H](C(=O)N[C@@H](CCSC)C(=O)N[C@@H](CC(N)=O)C(=O)N[C@@H](CO)C(=O)O)[C@@H](C)CC,circular dichroism,phosphate buffer 10 mM,"1 to 5 µM, pH 7.5, approximate",helicity,46%
C/C=C/C=C/C/C=C/CCCCCCCc1cccc(O)c1O,,"female Kunming mice tumour-bearing, lungs","intravenous, 10 mg/kg, 0.083 h",tissue concentration,28300 ± 2780 ng/g
COc1cc(NC(=O)C(=O)c2c(C)n(Cc3ccc(Cl)cc3)c3ccc(C)cc23)ccn1,,"male cynomolgus monkey, plasma","intravenous, 1 mg/kg",C0,2210 ng/mL and 2910 ng/mL and 2590 ng/mL and 2200 ng/mL and 2080 ng/mL
CSCC[C@@H]1NC(=O)[C@@H]2CSSC[C@H](NC(=O)[C@H](CO)NC(=O)[C@H](C)N)C(=O)N[C@@H](CCCNC(=N)N)C(=O)N[C@@H]([C@@H](C)O)C(=O)N3CCC[C@H]3C(=O)N[C@@H](CCCCN)C(=O)N[C@@H](CC(=O)O)C(=O)N[C@H]3CSSC[C@H](NC(=O)[C@H](CCCCN)NC(=O)[C@H](CCCNC(=N)N)NC(=O)[C@H](CC(N)=O)NC1=O)C(=O)N[C@@H](CCCCN)C(=O)N[C@H]1CSSC[C@H](NC(=O)[C@@H]4CCCN4C(=O)[C@H](CC(=O)O)NC(=O)[C@H](C)NC3=O)C(=O)N[C@@H](C)C(=O)N[C@@H](CCCCN)C(=O)N[C@@H](CCC(=O)O)C(=O)N[C@@H]([C@@H](C)O)C(=O)NCC(=O)N[C@@H](CSSC[C@@H](C(N)=O)NC(=O)[C@H](CCCNC(=N)N)NC(=O)[C@H](CC(N)=O)NC1=O)C(=O)N1CCC[C@H]1C(=O)N[C@@H](Cc1ccc(O)cc1)C(=O)NCC(=O)N[C@@H](CCCCN)C(=O)N2,,"DA rat pristane-induced arthritis, serum","subcutaneous, 0.1 mg/kg once weekly, 21 days",Potassium,4.56 mmol/L
CCCCCCCCCCCCC(=O)O.O=C1CCCC2C3CCCN4CCCC(CN12)C34 (stereo not shown),shake-flask,simulated gastric fluid,"pH 1.2, 37 °C",log octanol-water partition coefficient,-0.33
CC(C)(O)c1ccccc1CC[C@H](c1cccc(/C=C/c2ccc3ccc(Cl)cc3n2)c1)[S+]([O-])CC1(CC(=O)O)CC1 (stereo partly shown),,human liver cytosol,"1 µM, 30 min, 1 mg/mL protein",percent metabolized,9.87%
COc1cc2ccnc(Cc3ccc(O[11CH3])c(OC)c3)c2cc1OC,PET,"rhesus macaque, cerebellum","intravenous, 3 min",peak SUV,2.2
[3H]c1sc(C)nc1C=C(C)C1CC2C(CCCC(C)C(O)C(C)C(=O)C(C)(C)C(O)CC(=O)O1)N2CCO (stereo not shown),whole-body autoradiography,"CD2F1 mice, M109 FR− tumour periphery","intravenous, 2.2 nmol/kg, 0.5 h",radioactivity in tissue,3.3 ± 1 µg-eq/g
CC[C@H](C)C(=O)N1CCC(NC(=O)Nc2ccc(OC(F)(F)F)c(F)c2)CC1,,healthy volunteers,"oral, 16 mg single dose, 14 (unit not given)",subjects with any TEAE,66.7%
C=Cc1cc(O)cc2nc(-c3ccc(O)c([76Br])c3)oc12,,"female C57BL/6 mouse, lung","3 h, high dose",tissue uptake,0.17 ± 0.03 %ID/g
CC(=O)c1cccc(-c2cccc(OC(=O)NC3CCCCC3)c2)c1,,rat plasma,,log hydrolysis rate constant,-1.5
CC[C@H](C)[C@H](NC(=O)CNC(=O)[C@H](Cc1ccccc1)NC(=O)[C@H](CCCCN)NC(=O)[C@H](CCCCN)NC(=O)[C@H](CCCNC(=N)N)NC(=O)[C@H](CCCNC(=N)N)NC(=O)[C@H](CCCNC(=N)N)NC(=O)[C@H](CCC(N)=O)NC(=O)[C@H](CCCNC(=N)N)NC(=O)[C@H](CCCNC(=N)N)NC(=O)[C@H](CCCCN)NC(=O)[C@H](CCCCN)NC(=O)[C@H](CCCNC(=N)N)NC(=O)CNC(=O)[C@@H](N)Cc1ccc(O)cc1)C(=O)N[C@H](C(=O)N[C@@H](CC(N)=O)C(=O)N[C@@H](CO)C(=O)N[C@@H](CCC(N)=O)C(=O)N[C@@H](CC(C)C)C(=O)N[C@@H](CCCCN)C(=O)N1CCC[C@H]1C(=O)O)[C@@H](C)O,open field test,5XFAD and wild-type mice,"intraperitoneal, 25 mg/kg, outcome no effect",locomotor activity,no effect
[2H]C([2H])([2H])C([2H])([2H])C([2H])([2H])OC(C(=O)OC1CCNCC1)(c1ccccc1)c1ccccc1,refers to: otitis media,healthy Japanese male,"oral, 12 mg once daily, 16 days",adverse drug reactions,0%
CC(CCC(=O)NCC(=O)O)C1CCC2C3CCC4CC(OC5OC(C(=O)O)C(O)C(O)C5O)CCC4(C)C3CC(O)C12C (stereo not shown),,"human, SLCO1B1 c.521 T/C, plasma","fasting, geometric mean, sex-adjusted",plasma concentration,106 ng/mL
Cc1cc(C)c(-c2cc(C)c(OP(=O)([O-])OCCC[C@H](C(=O)[O-])N3CCN(CC(=O)[O-])CCN(CC(=O)[O-])CCN(CC(=O)[O-])CC3)cc2C)c(C)c1.[Gd+3],O-17 NMR,PBS,"37 °C, no protein, 7.05 T",water residency time,85 ns
CC[C@@H]1C[C@]1(NC(=O)[C@@H]1C[C@@]2(CN1C(=O)[C@@H](NC(=O)[C@@H](NC(=O)[C@@H]1CCCCN1C(C)C)C1CCCCC1)C(C)(C)C)C(C)(C)C21CCC1)C(=O)NS(=O)(=O)N1CCCC1,refers to: vomiting,human fasted,"oral, 100 mg single dose",subjects with adverse event,0%
CC(C)C[C@H](NC(=O)[C@H](CCCCN)NC(=O)[C@H](CCC(=O)O)NC(=O)[C@H](C)NC(=O)[C@@H](NC(=O)[C@H](CCCCN)NC(=O)[C@H](CC(=O)O)NC(=O)[C@H](Cc1ccc(O)cc1)NC(=O)[C@H](Cc1ccccc1)NC(=O)[C@H](C)NC(=O)[C@H](CCCCN)NC(=O)[C@H](CC(C)C)NC(=O)[C@H](Cc1c[nH]c2ccccc12)NC(=O)[C@@H](N)CC(=O)O)C(C)C)C(=O)N[C@@H](CCCCN)C(=O)N[C@@H](CCC(=O)O)C(=O)N[C@@H](C)C(=O)N[C@@H](Cc1ccccc1)C(=O)N1CCC[C@H]1C(=O)N[C@@H](CC(=O)O)C(=O)N[C@@H](Cc1c[nH]c2ccccc12)C(=O)N[C@@H](C)C(=O)N[C@@H](CCCCN)C(=O)N[C@@H](C)C(=O)N[C@@H](C)C(=O)N[C@@H](Cc1ccc(O)cc1)C(=O)N[C@@H](CC(=O)O)C(=O)N[C@@H](CCCCN)C(=O)N[C@@H](C)C(=O)N[C@@H](C)C(=O)N[C@@H](CCC(=O)O)C(=O)N[C@@H](CCCCN)C(=O)N[C@@H](C)C(=O)N[C@@H](CCCCN)C(=O)N[C@@H](CCC(=O)O)C(=O)N[C@@H](C)C(=O)N[C@@H](C)C(=O)O,,"cynomolgus monkey female, plasma","intravenous infusion, 8 mg/kg every other day, day 27",half-life,3.2 h
CC(C)[C@H](NC(=O)CNC(=O)[C@H](CCC(N)=O)NC(=O)[C@H](C)N)C(=O)O,refers to: short-lasting dizziness,human,"concentration not given, continuous infusion, highest dose",subjects with adverse event,33%
CC(C)[C@H](NC(=O)CNC(=O)[C@H](CCC(N)=O)NC(=O)[C@H](C)N)C(=O)O,,healthy male volunteers,"intravenous, 15 mg/kg/h, 2 h, together with: LPS 2 ng/kg",subjects with serious AE,0%
COC(=O)C[C@](O)(CCCC(C)(C)OC(C)=O)C(=O)O[C@@H]1C(OC)=C[C@]23CCCN2CCc2cc4c(cc2[C@H]13)OCO4,,"CD1 mouse, heart","subcutaneous, 1 mg/kg, 24 h, below quantification limit 1.00 ng/mL",tissue concentration,not detected
C[C@]12CC[C@H](O)CC1CCC1C2[C@H](O)C(=O)[C@]2(C)[C@@H](c3ccc(=O)oc3)CC[C@]12O (stereo partly shown),"sulfation, substrate",rabbit liver cytosol,pH 7.4,Km,78.5 ± 3.6 µM

# Some of these lines once more:
Structure (SMILES),assay,test system,conditions,endpoint,result
COC(=O)C[C@](O)(CCCC(C)(C)OC(C)=O)C(=O)O[C@@H]1C(OC)=C[C@]23CCCN2CCc2cc4c(cc2[C@H]13)OCO4,,"CD1 mouse, heart","subcutaneous, 1 mg/kg, 24 h, below quantification limit 1.00 ng/mL",tissue concentration,not detected
COc1cc2ccnc(Cc3ccc(O[11CH3])c(OC)c3)c2cc1OC,PET,"rhesus macaque, cerebellum","intravenous, 3 min",peak SUV,2.2
C/C=C/C=C/C/C=C/CCCCCCCc1cccc(O)c1O,,"female Kunming mice tumour-bearing, lungs","intravenous, 10 mg/kg, 0.083 h",tissue concentration,28300 ± 2780 ng/g
